{"data": "Assay results pooled from the literature", "note": "Parts stem from different laboratories: compare values within a part only.", "sequence of UniProt P06239 (whole entry, looked up)": "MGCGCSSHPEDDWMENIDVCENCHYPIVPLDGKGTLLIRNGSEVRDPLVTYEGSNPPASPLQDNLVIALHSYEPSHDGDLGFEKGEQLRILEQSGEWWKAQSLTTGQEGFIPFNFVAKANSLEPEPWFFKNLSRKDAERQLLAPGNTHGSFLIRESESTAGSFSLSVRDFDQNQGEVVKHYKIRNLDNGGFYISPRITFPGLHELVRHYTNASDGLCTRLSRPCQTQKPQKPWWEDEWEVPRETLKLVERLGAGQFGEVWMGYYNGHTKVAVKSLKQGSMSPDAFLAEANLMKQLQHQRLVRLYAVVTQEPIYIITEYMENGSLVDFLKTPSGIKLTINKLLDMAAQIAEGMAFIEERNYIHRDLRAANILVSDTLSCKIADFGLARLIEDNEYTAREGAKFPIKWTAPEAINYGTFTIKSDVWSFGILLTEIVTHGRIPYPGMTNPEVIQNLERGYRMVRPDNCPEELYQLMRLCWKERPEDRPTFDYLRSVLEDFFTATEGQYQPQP", "sequence of UniProt O75582 (whole entry, looked up)": "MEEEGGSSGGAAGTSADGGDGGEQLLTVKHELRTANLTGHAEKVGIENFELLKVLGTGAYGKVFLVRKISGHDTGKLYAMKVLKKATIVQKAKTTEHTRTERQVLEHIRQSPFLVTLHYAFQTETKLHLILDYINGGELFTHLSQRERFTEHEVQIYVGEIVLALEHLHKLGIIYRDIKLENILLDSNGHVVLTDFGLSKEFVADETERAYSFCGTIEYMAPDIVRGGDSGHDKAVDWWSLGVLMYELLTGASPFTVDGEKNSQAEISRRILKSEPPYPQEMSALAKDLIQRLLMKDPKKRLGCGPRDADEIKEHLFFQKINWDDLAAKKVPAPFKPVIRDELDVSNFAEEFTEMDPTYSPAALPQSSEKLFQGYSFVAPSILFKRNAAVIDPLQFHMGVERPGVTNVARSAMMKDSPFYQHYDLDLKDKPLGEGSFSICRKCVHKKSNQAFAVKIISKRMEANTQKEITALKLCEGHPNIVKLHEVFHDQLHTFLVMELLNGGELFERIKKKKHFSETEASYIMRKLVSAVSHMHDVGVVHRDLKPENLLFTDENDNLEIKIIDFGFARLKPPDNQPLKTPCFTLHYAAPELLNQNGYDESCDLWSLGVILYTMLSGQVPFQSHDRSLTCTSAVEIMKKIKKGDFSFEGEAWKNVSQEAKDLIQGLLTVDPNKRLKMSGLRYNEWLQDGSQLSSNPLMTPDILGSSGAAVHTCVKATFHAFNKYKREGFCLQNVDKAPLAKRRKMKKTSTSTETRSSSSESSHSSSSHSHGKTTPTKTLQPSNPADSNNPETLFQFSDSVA", "sequence of UniProt P48736 (whole entry, looked up)": "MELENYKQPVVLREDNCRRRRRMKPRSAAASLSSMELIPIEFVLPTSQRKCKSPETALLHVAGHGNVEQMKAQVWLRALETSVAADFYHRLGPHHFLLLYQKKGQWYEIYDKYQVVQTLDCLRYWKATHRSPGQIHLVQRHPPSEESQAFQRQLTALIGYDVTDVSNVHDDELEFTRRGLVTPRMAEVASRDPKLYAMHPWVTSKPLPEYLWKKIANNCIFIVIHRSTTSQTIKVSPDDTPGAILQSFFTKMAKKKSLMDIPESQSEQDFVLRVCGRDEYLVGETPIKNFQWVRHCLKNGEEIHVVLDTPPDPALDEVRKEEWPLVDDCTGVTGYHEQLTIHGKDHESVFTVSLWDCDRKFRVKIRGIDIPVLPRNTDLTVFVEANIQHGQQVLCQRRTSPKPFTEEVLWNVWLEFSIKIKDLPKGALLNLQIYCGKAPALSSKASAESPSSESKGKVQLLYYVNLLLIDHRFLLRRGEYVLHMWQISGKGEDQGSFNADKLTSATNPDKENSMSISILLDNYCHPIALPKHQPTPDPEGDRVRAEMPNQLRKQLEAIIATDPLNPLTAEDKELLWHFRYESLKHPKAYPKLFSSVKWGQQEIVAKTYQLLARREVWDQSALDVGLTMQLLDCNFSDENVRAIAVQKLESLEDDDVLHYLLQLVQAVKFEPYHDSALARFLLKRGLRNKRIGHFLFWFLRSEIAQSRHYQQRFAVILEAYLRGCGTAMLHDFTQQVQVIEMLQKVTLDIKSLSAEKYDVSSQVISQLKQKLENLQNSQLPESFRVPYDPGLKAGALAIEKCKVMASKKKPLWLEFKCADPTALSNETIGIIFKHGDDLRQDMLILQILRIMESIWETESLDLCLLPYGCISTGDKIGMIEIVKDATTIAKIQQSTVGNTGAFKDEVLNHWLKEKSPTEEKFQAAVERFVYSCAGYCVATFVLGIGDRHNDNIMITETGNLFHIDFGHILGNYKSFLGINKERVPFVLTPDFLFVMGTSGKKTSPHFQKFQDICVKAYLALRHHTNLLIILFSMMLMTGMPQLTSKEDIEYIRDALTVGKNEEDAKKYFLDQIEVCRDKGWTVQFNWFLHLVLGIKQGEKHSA", "sequence of UniProt P07949 (whole entry, unmodified, looked up)": "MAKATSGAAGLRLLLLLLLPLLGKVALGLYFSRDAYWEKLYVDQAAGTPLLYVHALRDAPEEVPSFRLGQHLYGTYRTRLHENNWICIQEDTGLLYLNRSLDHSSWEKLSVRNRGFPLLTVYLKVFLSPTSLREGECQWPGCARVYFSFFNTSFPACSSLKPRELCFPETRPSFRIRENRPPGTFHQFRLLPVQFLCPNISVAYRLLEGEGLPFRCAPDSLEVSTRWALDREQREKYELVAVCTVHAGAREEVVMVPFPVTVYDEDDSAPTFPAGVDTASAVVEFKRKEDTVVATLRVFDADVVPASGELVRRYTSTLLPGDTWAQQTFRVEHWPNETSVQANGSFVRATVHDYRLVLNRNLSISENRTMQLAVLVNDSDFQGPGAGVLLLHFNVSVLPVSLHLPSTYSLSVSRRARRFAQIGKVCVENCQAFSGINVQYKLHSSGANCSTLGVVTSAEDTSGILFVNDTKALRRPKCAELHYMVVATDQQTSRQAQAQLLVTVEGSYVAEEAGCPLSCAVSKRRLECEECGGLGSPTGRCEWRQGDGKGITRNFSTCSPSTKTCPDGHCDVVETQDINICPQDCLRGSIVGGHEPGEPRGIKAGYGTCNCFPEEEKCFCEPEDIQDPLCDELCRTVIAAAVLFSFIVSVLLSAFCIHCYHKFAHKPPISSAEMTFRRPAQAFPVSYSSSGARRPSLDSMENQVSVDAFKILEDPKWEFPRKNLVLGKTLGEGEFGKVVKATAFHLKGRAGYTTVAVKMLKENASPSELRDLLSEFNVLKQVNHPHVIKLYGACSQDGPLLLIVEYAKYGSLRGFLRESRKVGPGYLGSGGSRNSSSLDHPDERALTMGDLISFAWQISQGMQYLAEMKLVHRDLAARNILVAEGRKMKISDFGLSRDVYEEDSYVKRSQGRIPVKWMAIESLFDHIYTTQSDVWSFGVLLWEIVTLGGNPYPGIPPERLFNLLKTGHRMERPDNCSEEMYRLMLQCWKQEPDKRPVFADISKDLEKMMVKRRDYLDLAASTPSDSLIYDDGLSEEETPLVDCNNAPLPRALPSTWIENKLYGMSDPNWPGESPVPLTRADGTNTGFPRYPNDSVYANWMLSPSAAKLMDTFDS", "sequence of UniProt Q9Y2U5 (whole entry, looked up)": "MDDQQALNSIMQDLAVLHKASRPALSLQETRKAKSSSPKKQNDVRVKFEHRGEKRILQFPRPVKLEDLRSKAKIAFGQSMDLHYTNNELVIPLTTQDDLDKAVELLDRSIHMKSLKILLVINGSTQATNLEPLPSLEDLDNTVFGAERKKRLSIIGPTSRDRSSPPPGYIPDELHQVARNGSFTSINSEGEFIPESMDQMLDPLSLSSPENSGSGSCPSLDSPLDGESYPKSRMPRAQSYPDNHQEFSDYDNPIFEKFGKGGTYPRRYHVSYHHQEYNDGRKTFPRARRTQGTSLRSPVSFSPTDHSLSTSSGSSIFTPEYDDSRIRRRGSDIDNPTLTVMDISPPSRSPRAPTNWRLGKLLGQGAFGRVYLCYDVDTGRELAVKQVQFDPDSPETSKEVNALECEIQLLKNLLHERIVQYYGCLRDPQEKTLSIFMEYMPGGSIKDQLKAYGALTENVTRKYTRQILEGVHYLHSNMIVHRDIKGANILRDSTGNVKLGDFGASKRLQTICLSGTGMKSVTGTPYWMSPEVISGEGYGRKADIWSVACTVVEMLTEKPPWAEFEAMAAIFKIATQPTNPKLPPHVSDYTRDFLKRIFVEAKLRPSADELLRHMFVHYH", "sequence of UniProt P53778 (whole entry, looked up)": "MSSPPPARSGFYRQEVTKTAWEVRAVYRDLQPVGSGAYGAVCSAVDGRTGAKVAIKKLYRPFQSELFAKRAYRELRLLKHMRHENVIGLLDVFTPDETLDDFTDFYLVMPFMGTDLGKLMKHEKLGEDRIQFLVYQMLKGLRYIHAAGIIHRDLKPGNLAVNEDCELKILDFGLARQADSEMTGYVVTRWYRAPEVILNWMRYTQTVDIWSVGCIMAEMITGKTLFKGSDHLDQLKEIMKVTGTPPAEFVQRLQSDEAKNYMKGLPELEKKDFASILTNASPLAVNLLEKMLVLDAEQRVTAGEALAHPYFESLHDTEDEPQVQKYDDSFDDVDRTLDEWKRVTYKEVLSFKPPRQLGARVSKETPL"}
{"data": "Set 1", "target": "Fragile X messenger ribonucleoprotein 1, C-terminal low-complexity region (Fmr1, Mus musculus, UniProt P35922)", "method": "RNA Bind-n-Seq", "form": "RNA", "medium": "in vitro", "concentration": "200 nM", "setting": "whole 134-nt RNA, ends assumed", "added": "150 mM LiCl", "baseline": "input library", "direction": "higher = stronger binding", "each molecule": "7-deaza-guanosine replaces G"}
{"Oligonucleotide": "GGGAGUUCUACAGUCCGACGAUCCCUGUGCUACACAUCGUAUGUACCGAAUCGGGGUUUUUUGGGUUUUUUGGGGUUUUUUGGGAAAGUAUUAUGUUACGCCGUUCGGAUCUGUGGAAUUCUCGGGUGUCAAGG", "log2 enrichment": -0.356}
{"Oligonucleotide": "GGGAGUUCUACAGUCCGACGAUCCAAGUCCUGUGCUACACAUCGUAUGUACCGAAUCGGUUUGGUUUGGAAAAAAAGGAAAGUAUUAUGUUACGCCGUUCGGAUCUGCACUUCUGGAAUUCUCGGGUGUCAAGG", "log2 enrichment": -1.44}
{"Oligonucleotide": "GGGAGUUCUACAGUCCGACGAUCAGUCCUGUGCUACACAUCGUAUGUACCGAAUCGGGGUGGGGUUUUUUUGGGGUGGGGAAAGUAUUAUGUUACGCCGUUCGGAUCUGCACUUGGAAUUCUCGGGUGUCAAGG", "log2 enrichment": 0.0755}
{"Oligonucleotide": "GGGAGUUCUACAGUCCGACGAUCAGUCCUGUGCUACACAUCGUAUGUACCGAAUCGGGGAGGGGUGGGGAAAAAAAGGGGAAAGUAUUAUGUUACGCCGUUCGGAUCUGCACUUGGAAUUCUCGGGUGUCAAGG", "log2 enrichment": -0.0173}
{"Oligonucleotide": "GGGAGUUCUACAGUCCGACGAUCAGUCCUGUGCUACACAUCGUAUGUACCGAAUCGGGGUGGGGAGGGGUUUUUUUGGGGAAAGUAUUAUGUUACGCCGUUCGGAUCUGCACUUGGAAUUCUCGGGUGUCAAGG", "log2 enrichment": -0.153}
{"Oligonucleotide": "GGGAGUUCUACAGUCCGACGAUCGCAGGAAGUAAAAACAAAUGGAAAUGCUUCGGAUAGUGGCAGGGGUGGGGGUUGCUAAGGAAAGGGUGGGAUGGGAGAGGGUAAAGAGUUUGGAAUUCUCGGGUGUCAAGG", "log2 enrichment": 1.75}
{"Oligonucleotide": "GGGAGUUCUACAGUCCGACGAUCUCUGAGGUCACCAAGCCUCCUCCUUGCUUGGAGAACUCCUCGCCUCCCUCCAGGAUUCCGGAGCCUGAAUCCCCAGCGAAGCCAAACGUCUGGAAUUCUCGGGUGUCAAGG", "log2 enrichment": 1.53}
{"Oligonucleotide": "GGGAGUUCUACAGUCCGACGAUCACCAUGCAGGUGGGCAUCUUUGGGAAGUGGGGCAAGGGGGGGAUAGGGAGGGGGGUAAUACUUUGGGAACAGGUGGUCCCAGGUCGUUUCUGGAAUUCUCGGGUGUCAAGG", "log2 enrichment": 1.76}
{"data": "Set 2", "target": "Serine/threonine-protein kinase Sgk3 (SGK3, Homo sapiens, UniProt Q96BR1)", "read-out": "enzyme activity", "action": "inhibitor", "concentration": "0.5 µM", "baseline": "control", "sequence of UniProt Q96BR1 (whole entry, looked up)": "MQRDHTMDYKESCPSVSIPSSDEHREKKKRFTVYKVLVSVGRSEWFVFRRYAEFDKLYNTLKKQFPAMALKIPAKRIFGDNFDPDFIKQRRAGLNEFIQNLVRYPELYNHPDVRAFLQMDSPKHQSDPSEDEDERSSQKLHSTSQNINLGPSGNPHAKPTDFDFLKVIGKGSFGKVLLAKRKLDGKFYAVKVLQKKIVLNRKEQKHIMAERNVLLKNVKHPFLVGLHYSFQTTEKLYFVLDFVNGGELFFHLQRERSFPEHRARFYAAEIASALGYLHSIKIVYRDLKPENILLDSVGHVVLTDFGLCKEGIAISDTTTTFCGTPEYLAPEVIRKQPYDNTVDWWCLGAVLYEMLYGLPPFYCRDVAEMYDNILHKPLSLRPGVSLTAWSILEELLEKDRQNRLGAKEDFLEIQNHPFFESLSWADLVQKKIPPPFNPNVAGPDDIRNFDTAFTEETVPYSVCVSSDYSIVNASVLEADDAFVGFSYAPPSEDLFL"}
{"SMILES": "COc1ccc(-c2cnc3c(-c4ccsc4)cnn3c2)cc1", "remaining activity [%]": 99.6}
{"SMILES": "CCC(=O)Nc1ccc2ncnc(Nc3cccc(Br)c3)c2c1", "remaining activity [%]": 92.8}
{"SMILES": "CC(=O)O/N=C1/C(c2c(O)[nH]c3cc(Br)ccc23)=Nc2ccccc21", "remaining activity [%]": 100}
{"SMILES": "CC(C)[C@H](CO)Nc1nc(Nc2cccc(Cl)c2)c2ncn(C(C)C)c2n1", "remaining activity [%]": 97.6}
{"SMILES": "Cn1cc(/C=C2\\C(=O)Nc3ccc(S(N)(=O)=O)cc32)c2ccccc21", "remaining activity [%]": 94.7}
{"SMILES": "O=c1cc(N2CCOCC2)oc2c1ccc1ccccc12", "remaining activity [%]": 106}
{"SMILES": "CC(C)c1nn(-c2c(Cl)cccc2Cl)c2nc(Cc3ccc(OCCO)cc3)[nH]c(=O)c12", "remaining activity [%]": 92.6}
{"SMILES": "COc1ccc(Cl)cc1NC(=O)Nc1cc(C)nc2ccccc12", "remaining activity [%]": 108}
{"SMILES": "O=C1NC(=O)/C(=C/c2ccc3nccnc3c2)S1", "remaining activity [%]": 94.3}
{"SMILES": "Cc1ccc(NC(=O)c2ccc(CN3CCN(C)CC3)cc2)cc1Nc1nccc(-c2cccnc2)n1", "remaining activity [%]": 104}
{"SMILES": "CN(C)CCCn1cc(C2=C(c3c[nH]c4ccccc34)C(=O)NC2=O)c2ccccc21", "remaining activity [%]": 72.8}
{"SMILES": "COc1cc2ncc(-c3ccccc3)nc2cc1OC", "remaining activity [%]": 89.7}
{"SMILES": "C[S+]([O-])c1ccc(-c2nc(-c3ccncc3)c(-c3ccc(F)cc3)[nH]2)cc1 (centres unmarked)", "remaining activity [%]": 101}
{"SMILES": "Cn1cnc2cc3c(Nc4cccc(Br)c4)ncnc3cc21", "remaining activity [%]": 107}
{"SMILES": "Nc1[nH]nc2nnc(-c3c(-c4ccccc4)nn4ccccc34)cc12", "remaining activity [%]": 90.2}
{"SMILES": "O=C(Nc1ccc(Cl)cc1)c1ccccc1NCc1ccncc1", "remaining activity [%]": 92.5}
{"SMILES": "COc1cc2ncnc(N3CCN(C(=O)Nc4ccc(Oc5ccccc5)cc4)CC3)c2cc1OC", "remaining activity [%]": 97.6}
{"SMILES": "CCN1/C(=C/C(C)=O)Sc2ccc(OC)cc21", "remaining activity [%]": 93.4}
{"SMILES": "COc1cc2ncnc(Nc3ccc(OCc4ccccc4)cc3)c2cc1OC", "remaining activity [%]": 105}
{"SMILES": "CCOc1cc2ncnc(Nc3cccc(Br)c3)c2cc1OCC", "remaining activity [%]": 96.7}
{"SMILES": "Cc1nc(Nc2ncc(C(=O)Nc3c(C)cccc3Cl)s2)cc(N2CCN(CCO)CC2)n1", "remaining activity [%]": 102}
{"data": "Set 3", "SMILES": "CC(=O)N1CCC(c2ccc(C(=O)NC(=N)N)cc2C(F)(F)F)CC1", "read-out": "cell-free assay", "method": "competition with immobilised ligand", "concentration": "1 µM"}
{"target": "MAPK7 (Homo sapiens, UniProt Q13164)", "remaining binding": "100%"}
{"target": "LCK (Homo sapiens, UniProt P06239)", "remaining binding": "100%"}
{"target": "COQ8B (Homo sapiens, UniProt Q96D53)", "remaining binding": "100%"}
{"target": "PHKG1 (Homo sapiens, UniProt Q16816)", "remaining binding": "100%"}
{"target": "PRKD1 (Homo sapiens, UniProt Q15139)", "remaining binding": "100%"}
{"target": "Ribosomal protein S6 kinase alpha-5, N-terminal kinase domain (RPS6KA5, Homo sapiens, UniProt O75582)", "remaining binding": "100%"}
{"target": "AKT3 (Homo sapiens, UniProt Q9Y243)", "remaining binding": "100%"}
{"target": "RET (Homo sapiens, UniProt P07949, V804L)", "remaining binding": "97%"}
{"target": "PIK3CG (Homo sapiens, UniProt P48736)", "remaining binding": "100%"}
{"target": "STK33 (Homo sapiens, UniProt Q9BYT3)", "remaining binding": "100%"}
{"target": "MAP3K2 (Homo sapiens, UniProt Q9Y2U5)", "remaining binding": "100%"}
{"target": "NUAK2 (Homo sapiens, UniProt Q9H093)", "remaining binding": "100%"}
{"target": "TSSK3 (Homo sapiens, UniProt Q96PN8)", "remaining binding": "100%"}
{"target": "MAPK15 (Homo sapiens, UniProt Q8TD08)", "remaining binding": "100%"}
{"target": "CLK3 (Homo sapiens, UniProt P49761)", "remaining binding": "100%"}
{"target": "MTOR (Homo sapiens, UniProt P42345)", "remaining binding": "100%"}
{"target": "NEK1 (Homo sapiens, UniProt Q96PY6)", "remaining binding": "100%"}
{"target": "TAOK2 (Homo sapiens, UniProt Q9UL54)", "remaining binding": "94%"}
{"target": "MAP3K9 (Homo sapiens, UniProt P80192)", "remaining binding": "100%"}
{"target": "CDK8 (Homo sapiens, UniProt P49336)", "remaining binding": "100%"}
{"target": "TGFBR2 (Homo sapiens, UniProt P37173)", "remaining binding": "100%"}
{"target": "PIK3CA (Homo sapiens, UniProt P42336, C420R)", "remaining binding": "100%"}
{"target": "MAST1 (Homo sapiens, UniProt Q9Y2H9)", "remaining binding": "49%"}
{"target": "MST1R (Homo sapiens, UniProt Q04912)", "remaining binding": "97%"}
{"target": "MAPK12 (Homo sapiens, UniProt P53778)", "remaining binding": "77%"}
{"data": "Other studies, line by line"}
{"Compound": "CC(C)n1cnc(-c2ccc(F)cc2)c1-c1ncc(C(=O)Nc2ccc(N3CCN(C)CC3)cc2)[nH]1", "system": "human, idiopathic pulmonary fibrosis", "conditions": "60 mg once daily, trial, treatment-emergent", "endpoint": "patients with increased neutrophil", "value": "0%"}
{"Compound": "O=C(Nc1ccccc1)c1cccc(Oc2ccc3nccn3n2)c1", "tested on": "DDR1b human", "test": "DDR1 autophosphorylation, Western blot", "system": "HeLa transfected with DDR1b", "conditions": "concentration not given, 24 h, added: collagen I", "endpoint": "inhibition", "value": "no inhibition"}
{"note": "Excerpt of the above (set 3):"}
{"target": "PIK3CG (Homo sapiens, UniProt P48736)", "remaining binding": "100%"}
{"target": "STK33 (Homo sapiens, UniProt Q9BYT3)", "remaining binding": "100%"}
{"target": "MAP3K2 (Homo sapiens, UniProt Q9Y2U5)", "remaining binding": "100%"}
{"target": "NUAK2 (Homo sapiens, UniProt Q9H093)", "remaining binding": "100%"}
{"target": "TSSK3 (Homo sapiens, UniProt Q96PN8)", "remaining binding": "100%"}
{"target": "MAPK15 (Homo sapiens, UniProt Q8TD08)", "remaining binding": "100%"}
